Experimental data collected from several papers.
A part holds a random share of what one study measured. “And” joins repeats or separate records; there may be more than shown.
Sequence of UniProt Q14004 (whole entry, looked up): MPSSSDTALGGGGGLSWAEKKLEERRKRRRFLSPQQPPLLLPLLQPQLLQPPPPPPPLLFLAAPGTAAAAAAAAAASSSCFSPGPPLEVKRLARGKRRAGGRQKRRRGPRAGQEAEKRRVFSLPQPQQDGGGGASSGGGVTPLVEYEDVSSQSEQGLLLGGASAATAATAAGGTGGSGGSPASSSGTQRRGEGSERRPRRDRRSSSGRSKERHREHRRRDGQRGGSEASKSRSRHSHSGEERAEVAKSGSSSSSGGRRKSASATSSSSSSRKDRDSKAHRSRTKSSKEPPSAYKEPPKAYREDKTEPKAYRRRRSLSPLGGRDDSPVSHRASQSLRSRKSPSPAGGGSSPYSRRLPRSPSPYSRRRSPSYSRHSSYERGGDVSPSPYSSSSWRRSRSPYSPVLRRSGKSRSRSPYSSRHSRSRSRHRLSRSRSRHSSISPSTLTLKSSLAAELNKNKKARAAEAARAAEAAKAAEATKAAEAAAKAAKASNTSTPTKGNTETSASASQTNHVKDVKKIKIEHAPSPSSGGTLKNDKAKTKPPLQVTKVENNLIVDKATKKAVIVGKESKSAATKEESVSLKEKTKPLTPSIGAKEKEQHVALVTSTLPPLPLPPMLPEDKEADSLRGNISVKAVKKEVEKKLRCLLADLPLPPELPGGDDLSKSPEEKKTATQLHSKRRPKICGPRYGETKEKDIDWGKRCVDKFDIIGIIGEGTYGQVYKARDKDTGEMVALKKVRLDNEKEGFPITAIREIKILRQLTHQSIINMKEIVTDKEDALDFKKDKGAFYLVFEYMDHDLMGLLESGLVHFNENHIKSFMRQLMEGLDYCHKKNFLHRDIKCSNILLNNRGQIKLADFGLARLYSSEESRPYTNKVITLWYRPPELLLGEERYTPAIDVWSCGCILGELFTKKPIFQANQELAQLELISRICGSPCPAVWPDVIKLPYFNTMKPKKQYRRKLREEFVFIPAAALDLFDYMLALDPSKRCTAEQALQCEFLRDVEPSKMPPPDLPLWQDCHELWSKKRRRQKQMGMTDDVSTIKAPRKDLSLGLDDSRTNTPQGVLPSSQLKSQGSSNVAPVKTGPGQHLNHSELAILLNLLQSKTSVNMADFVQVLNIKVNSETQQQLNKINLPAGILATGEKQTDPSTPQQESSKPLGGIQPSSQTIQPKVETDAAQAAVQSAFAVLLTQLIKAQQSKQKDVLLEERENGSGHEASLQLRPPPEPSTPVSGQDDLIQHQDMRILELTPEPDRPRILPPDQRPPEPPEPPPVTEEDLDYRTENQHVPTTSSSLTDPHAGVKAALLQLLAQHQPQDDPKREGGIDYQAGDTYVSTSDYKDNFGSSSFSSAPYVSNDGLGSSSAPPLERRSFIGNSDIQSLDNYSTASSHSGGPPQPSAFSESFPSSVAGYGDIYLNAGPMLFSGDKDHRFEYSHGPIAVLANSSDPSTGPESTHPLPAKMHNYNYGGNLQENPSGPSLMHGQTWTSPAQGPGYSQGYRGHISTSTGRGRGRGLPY
Sequence of UniProt O43683 (whole entry, looked up): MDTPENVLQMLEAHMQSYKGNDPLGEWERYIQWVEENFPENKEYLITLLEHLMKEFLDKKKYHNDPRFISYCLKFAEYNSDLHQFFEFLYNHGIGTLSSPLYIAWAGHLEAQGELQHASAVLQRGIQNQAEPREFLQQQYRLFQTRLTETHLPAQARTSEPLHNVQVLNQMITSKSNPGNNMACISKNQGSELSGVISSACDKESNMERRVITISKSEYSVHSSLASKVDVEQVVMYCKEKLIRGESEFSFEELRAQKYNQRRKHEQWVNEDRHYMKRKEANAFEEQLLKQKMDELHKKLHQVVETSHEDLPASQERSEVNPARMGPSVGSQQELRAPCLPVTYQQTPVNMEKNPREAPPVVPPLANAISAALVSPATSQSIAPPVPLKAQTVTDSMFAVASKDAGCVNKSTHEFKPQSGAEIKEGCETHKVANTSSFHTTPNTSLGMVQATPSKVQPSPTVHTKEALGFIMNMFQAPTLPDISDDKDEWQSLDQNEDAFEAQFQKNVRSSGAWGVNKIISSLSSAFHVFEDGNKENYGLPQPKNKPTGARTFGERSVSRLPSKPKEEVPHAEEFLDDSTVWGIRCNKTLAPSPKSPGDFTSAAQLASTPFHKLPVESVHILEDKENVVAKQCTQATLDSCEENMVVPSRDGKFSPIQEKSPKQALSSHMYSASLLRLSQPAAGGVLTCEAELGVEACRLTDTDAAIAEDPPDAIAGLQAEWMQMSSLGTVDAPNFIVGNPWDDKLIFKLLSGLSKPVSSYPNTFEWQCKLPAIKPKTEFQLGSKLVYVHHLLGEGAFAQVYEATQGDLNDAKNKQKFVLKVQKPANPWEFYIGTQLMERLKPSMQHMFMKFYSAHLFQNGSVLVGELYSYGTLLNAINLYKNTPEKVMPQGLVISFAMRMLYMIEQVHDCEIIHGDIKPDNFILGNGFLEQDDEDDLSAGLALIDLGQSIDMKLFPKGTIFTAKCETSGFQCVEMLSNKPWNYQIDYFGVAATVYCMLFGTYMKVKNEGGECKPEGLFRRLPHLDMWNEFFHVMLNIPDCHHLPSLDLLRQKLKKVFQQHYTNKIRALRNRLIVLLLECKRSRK
Sequence of UniProt Q9HCP0 (whole entry, looked up): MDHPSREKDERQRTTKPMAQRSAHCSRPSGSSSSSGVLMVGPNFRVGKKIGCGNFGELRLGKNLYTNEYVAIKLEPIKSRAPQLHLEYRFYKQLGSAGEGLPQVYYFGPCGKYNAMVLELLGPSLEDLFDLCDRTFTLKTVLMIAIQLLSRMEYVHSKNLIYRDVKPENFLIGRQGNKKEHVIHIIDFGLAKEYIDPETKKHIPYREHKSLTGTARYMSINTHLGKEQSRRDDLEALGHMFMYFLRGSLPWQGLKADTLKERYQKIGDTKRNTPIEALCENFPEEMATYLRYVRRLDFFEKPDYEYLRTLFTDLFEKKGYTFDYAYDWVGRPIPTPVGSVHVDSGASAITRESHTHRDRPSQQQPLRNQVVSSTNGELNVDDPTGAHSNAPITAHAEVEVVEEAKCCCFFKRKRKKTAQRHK
Sequence of UniProt P22607 (whole entry, unmodified, looked up): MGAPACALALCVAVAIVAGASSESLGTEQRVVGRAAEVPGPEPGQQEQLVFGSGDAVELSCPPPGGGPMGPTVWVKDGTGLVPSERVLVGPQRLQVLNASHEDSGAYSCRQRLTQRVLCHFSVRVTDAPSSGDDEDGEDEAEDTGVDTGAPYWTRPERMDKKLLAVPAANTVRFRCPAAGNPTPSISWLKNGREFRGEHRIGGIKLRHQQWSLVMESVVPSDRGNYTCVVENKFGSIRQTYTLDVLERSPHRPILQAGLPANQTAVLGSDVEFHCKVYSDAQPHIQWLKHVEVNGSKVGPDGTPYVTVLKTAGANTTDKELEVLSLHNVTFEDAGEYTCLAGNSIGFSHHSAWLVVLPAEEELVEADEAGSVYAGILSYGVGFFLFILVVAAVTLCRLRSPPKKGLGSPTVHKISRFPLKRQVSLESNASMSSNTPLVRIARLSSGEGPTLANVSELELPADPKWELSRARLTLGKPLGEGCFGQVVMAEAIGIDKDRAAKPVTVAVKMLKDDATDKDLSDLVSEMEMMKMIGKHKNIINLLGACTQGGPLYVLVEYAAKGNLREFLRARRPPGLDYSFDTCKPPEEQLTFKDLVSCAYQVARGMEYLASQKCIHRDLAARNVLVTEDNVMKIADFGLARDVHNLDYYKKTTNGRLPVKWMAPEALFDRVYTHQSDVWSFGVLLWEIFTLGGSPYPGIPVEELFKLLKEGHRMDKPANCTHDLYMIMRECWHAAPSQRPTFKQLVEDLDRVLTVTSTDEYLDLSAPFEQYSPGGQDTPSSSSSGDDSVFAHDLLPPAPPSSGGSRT
Sequence of UniProt Q16584 (whole entry, looked up): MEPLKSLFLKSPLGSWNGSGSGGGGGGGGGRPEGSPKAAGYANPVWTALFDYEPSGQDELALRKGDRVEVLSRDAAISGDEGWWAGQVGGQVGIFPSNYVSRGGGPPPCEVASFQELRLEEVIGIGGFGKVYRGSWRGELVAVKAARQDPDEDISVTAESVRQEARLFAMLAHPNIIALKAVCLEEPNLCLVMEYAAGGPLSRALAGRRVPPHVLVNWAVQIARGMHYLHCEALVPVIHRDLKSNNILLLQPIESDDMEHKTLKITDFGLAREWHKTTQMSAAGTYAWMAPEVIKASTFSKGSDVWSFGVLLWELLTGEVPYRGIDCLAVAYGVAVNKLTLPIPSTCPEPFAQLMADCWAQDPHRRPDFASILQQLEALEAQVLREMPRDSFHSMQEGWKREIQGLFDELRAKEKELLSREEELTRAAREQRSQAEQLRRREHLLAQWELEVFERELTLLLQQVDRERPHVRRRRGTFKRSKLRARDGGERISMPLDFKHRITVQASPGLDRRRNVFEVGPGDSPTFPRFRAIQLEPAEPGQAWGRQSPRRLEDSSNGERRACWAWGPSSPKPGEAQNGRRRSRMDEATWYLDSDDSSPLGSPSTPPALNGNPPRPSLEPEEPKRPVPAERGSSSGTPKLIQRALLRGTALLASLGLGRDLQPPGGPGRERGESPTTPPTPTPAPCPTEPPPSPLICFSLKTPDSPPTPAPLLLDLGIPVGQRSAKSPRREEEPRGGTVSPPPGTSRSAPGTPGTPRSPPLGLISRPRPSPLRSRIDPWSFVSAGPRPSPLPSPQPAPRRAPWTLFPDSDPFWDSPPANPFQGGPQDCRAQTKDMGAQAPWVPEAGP
Sequence of UniProt P49841 (whole entry, looked up): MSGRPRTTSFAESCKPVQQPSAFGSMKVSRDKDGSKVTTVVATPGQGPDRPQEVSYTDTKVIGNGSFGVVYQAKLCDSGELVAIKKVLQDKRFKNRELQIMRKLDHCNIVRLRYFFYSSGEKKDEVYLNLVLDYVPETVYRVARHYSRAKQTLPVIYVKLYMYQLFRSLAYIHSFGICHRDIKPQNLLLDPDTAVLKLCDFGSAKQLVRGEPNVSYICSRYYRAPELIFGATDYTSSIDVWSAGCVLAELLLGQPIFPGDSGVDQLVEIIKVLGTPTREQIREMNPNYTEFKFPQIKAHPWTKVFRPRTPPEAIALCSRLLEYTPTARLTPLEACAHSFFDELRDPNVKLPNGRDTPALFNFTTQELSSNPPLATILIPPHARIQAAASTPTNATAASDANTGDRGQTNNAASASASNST

Sample 1 — cell line: mouse MPNST tumor cells; method: high-content immunofluorescence imaging; measured: nuclear SOX9; tested at: 10 µM; time: 12 h; notes: mean of 2 replicates; reference: DMSO control; reading: higher = more nuclear SOX9
| SMILES | nuclear SOX9 intensity |
| --- | --- |
| NCC[C@H](O)C(=O)N[C@@H]1C[C@H](N)[C@@H](O[C@H]2O[C@H](CN)[C@@H](O)[C@H](O)[C@H]2O)[C@H](O)[C@H]1O[C@H]1O[C@H](CO)[C@@H](O)[C@H](N)[C@H]1O | 110 % of DMSO |
| COc1ccc(S(=O)(=O)N2c3ccc(Cl)cc3[C@](O)(c3ccccc3Cl)[C@@H]2C(=O)N2CCC[C@H]2C(N)=O)cc1OC | 102 % of DMSO |
| C[C@H](Cc1cc2c(c(C(N)=O)c1)N(CCCO)CC2)NCCOc1ccccc1OCC(F)(F)F | 102 % of DMSO and 107 % of DMSO |
| Cc1cccc(CN2CCN(C(c3ccccc3)c3ccc(Cl)cc3)CC2)c1 (centres unmarked) | 134 % of DMSO and 156 % of DMSO |
| C=C1C[C@H]2[C@@H]3C=C(C)C4=CC(=O)CC[C@]4(C)[C@H]3CC[C@]2(C)[C@@]1(OC(C)=O)C(C)=O | 87.3 % of DMSO |
| Cc1ccc(OCCSc2ncccn2)c(Br)c1 | 105 % of DMSO |
| CN[C@H](CC(C)C)C(=O)N[C@H]1C(=O)N[C@@H](CC(N)=O)C(=O)N[C@H]2C(=O)N[C@H]3C(=O)N[C@H](C(=O)N[C@H](C(=O)O)c4cc(O)cc(O)c4-c4cc3ccc4O)[C@H](O)c3ccc(c(Cl)c3)Oc3cc2cc(c3O[C@@H]2O[C@H](CO)[C@@H](O)[C@H](O)[C@H]2O[C@H]2C[C@](C)(N)[C@H](O)[C@H](C)O2)Oc2ccc(cc2Cl)[C@H]1O | 101 % of DMSO |
| N[C@@H](Cc1cc(I)c(Oc2ccc(O)c(I)c2)c(I)c1)C(=O)O | 90.9 % of DMSO and 87.6 % of DMSO |

Sample 2 — method: phase 2a trial; host: idiopathic pulmonary fibrosis patients
SMILES: CC(C)n1cnc(-c2ccc(F)cc2)c1-c1ncc(C(=O)Nc2ccc(N3CCN(C)CC3)cc2)[nH]1
| test | setting | adverse event incidence |
| --- | --- | --- |
| measured: QRS axis abnormal | 30 mg once daily, grade 2 | 0% |
| measured: infection | 60 mg once daily, grade 1 | 0% |
| measured: hepatic enzyme abnormal | 30 mg once daily, grade 5 | 0% |
| measured: ventricular extrasystoles | dose not given, grade 2, all arms pooled | 0% |
| measured: hepatic enzyme abnormal | dose not given, grade 4, all arms pooled | 0% |
| measured: QRS axis abnormal | dose not given, grade 4, all arms pooled | 0% |

Sample 3 — host: mouse; medium: microsomes or S9; tested at: 2 µM; time: 0.5 h
| SMILES | remaining compound [%] |
| --- | --- |
| COC(=O)N1CC(C)CN(c2ccc(NC(=O)Nc3cc(C)ccc3OC)cc2)S1(=O)=O (centres unmarked) | 9.76 |
| CC(=O)Nc1ccc(-n2nnc(C(=O)NCCCN(C)C)c2N)cc1 | 86.9 |
| O=C(Nc1ccc2nc(N3CCC(N4CCCCC4)CC3)cc(C(=O)O)c2c1)c1ccccc1F | > 100 |
| COC(=O)c1cc(O)c(=O)c2c(O)c(O)ccc2c1 | > 99 |
| CC1(C)C[C@H](O)[C@@H](n2/c(=N/C#N)[nH]c3ccccc32)c2cccc([N+](=O)[O-])c2O1 | > 99.9 |
| COc1ccc(/N=c2\[nH]nc3nc(C)cc(C)n23)cc1 | 7.91 |

Sample 4 — read-out: cell-free assay; method: competition with immobilised ligand; tested at: 1 µM
Structure (SMILES): CO[C@@H](C)c1c(Nc2ccc([C@@H](N(C)C(=O)C3CCS(=O)(=O)CC3)C(F)(F)F)cc2)cnc2cc(Cl)nn12
| target | remaining binding |
| --- | --- |
| FGFR3 (Homo sapiens, UniProt P22607, G697C) | 84% |
| MAP3K11 (Homo sapiens, UniProt Q16584) | 85% |
| CDK13 (Homo sapiens, UniProt Q14004) | 100% |
| FLT3 (Homo sapiens, UniProt P36888, R834Q) | 100% |
| GRK3 (Homo sapiens, UniProt P35626) | 91% |
| STK11 (Homo sapiens, UniProt Q15831) | 78% |
| FER (Homo sapiens, UniProt P16591) | 89% |
| BUB1 (Homo sapiens, UniProt O43683) | 100% |
| Tyrosine-protein kinase ABL1, phosphorylated (ABL1, Homo sapiens, UniProt P00519, Q252H) | 100% |
| GSK3B (Homo sapiens, UniProt P49841) | 100% |
| CSNK1G1 (Homo sapiens, UniProt Q9HCP0) | 99% |
| FLT3 (Homo sapiens, UniProt P36888, N841I) | 57% |

Some of these lines once more (sample 1):
| SMILES | nuclear SOX9 intensity |
| --- | --- |
| C[C@H](Cc1cc2c(c(C(N)=O)c1)N(CCCO)CC2)NCCOc1ccccc1OCC(F)(F)F | 102 % of DMSO and 107 % of DMSO |
| N[C@@H](Cc1cc(I)c(Oc2ccc(O)c(I)c2)c(I)c1)C(=O)O | 90.9 % of DMSO and 87.6 % of DMSO |
| NCC[C@H](O)C(=O)N[C@@H]1C[C@H](N)[C@@H](O[C@H]2O[C@H](CN)[C@@H](O)[C@H](O)[C@H]2O)[C@H](O)[C@H]1O[C@H]1O[C@H](CO)[C@@H](O)[C@H](N)[C@H]1O | 110 % of DMSO |
| Cc1cccc(CN2CCN(C(c3ccccc3)c3ccc(Cl)cc3)CC2)c1 (centres unmarked) | 134 % of DMSO and 156 % of DMSO |
